# Experimental data pooled from the literature.
# Lines come from different studies, so protocols differ.
# Cell line: HEK-293T
Compound,test,setting,scale,measurement,result
CC(C)C(OC(=O)C(C)(C)C)n1nnnc1CCNC(=S)NCCCC[C@H](NS(=O)(=O)c1cccc(F)c1)C(=O)N[C@@H](Cc1c[nH]c2ccccc12)C(=O)NC1CCC1 (some centres unmarked),"cell growth or viability, MTT",100 µM,,inhibition,< 35%
O=C(CSc1nc2ccccc2s1)Nc1nonc1[N+](=O)[O-],"cell viability, CellTiter-Glo",,,GI50,> 40 µM
Cc1cc(C)nc(SCC(=O)Nc2ncc(Cc3cccc(OCc4cn(Cc5ccc(C#N)cc5)nn4)c3)s2)n1,"cell growth or viability, MTS",,,GI50,5.87 µM
[Fe+2].c1ccc(P(=NCc2ccccn2)(c2ccccc2)[c-]2cccc2)cc1.c1ccc(P(=NCc2ccccn2)(c2ccccc2)[c-]2cccc2)cc1,"cell growth or viability, MTT",74 h,,IC50,10.5 µM
CC1(C)C(=O)N=C2C1=C(O)C(=O)c1ccccc12,"H4K20me1 level, inhibitor, western blot",24 h,,effective concentration,< 5 µM
COC(=O)C1=Cc2ccccc2S1(=O)=O,,"concentration not given, 6 h",,GFPu degradation,no effect
[Cl][Pd-2]1([Cl])[N+](=P(c2ccccc2)(c2ccccc2)c2ccccc2)Cc2cccc[n+]21,"cell growth, MTT",,reference: cancer cell lines over HEK-293T,selectivity ratio,~7.5 fold
Cc1ccc(N=C2CC(=O)c3sc(C)nc3C2=O)cc1,"H4K20me1 depletion, inhibitor, western blot",sustained 3 days,,effective single dose,1 µM

# Excerpt of the above:
Compound,test,setting,scale,measurement,result
[Fe+2].c1ccc(P(=NCc2ccccn2)(c2ccccc2)[c-]2cccc2)cc1.c1ccc(P(=NCc2ccccn2)(c2ccccc2)[c-]2cccc2)cc1,"cell growth or viability, MTT",74 h,,IC50,10.5 µM
